# Published values collected from several papers.
# Every numbered part comes from another study and shows a few of its results, in no order.

# Sample 1
# Target: RNA binding protein fox-1 homolog 2, RRM domain, GST-SBP tag (RBFOX2, Homo sapiens, UniProt O43251-10, residues 100-194)
# Technique: RNA Bind-n-Seq
# Form: RNA
# Matrix: in vitro
# Tested at: 365 nM
# Notes: natural RNA segment, single round, ends assumed
# Relative to: no-protein control
# Reading: higher = stronger binding
# Shared flanks, not repeated: GGGAGUUCUACAGUCCGACGAUC … UGGAAUUCUCGGGUGCCAA
# Construct (chain): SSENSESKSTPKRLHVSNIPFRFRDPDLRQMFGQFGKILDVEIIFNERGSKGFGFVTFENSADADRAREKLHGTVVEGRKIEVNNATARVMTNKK
Oligonucleotide,RBNS enrichment (R)
CUGCUGUGUGAGAGAGGAGCCAAGAGGCAGGUGCUUGCCGACGGCCGCAUCCUCCUUCCCAGGUGUUGGACCAAGACCCGCCCCGCUGCCUGGCACUGCUUGGAGGUGUG,0.909
GACAUACCUGUGAUGGAACACACAAACAGACACGCACCAUGGGGGGUGGCCCACAAAGCCUUACACAAGGCGAGAUGUCAAUGAAGGGGUUGGCCUGUGUGUUCCAUCUC,0.924
GGUGGCAUGUGCCAGUAGUCCCAGCUACUCGAAAGGCUAAGACUGGAGGAUCGCUUGAGCCAAUGAGUUGGAGGCUGCAGUGAGCUAUAAUCACGCCACUGCACUCCAGC,0.544
GAGCAGUCCUUCAAUCUCAGAACCCCAGGAGGCCCCACAGGAGUUGCCCUCCUCCUUCAGCCUGCCCCUGCCUUGGGCUGCCCUUCCCCUGGUGUACUCCUGAGGUGUCU,0.725
UGCCUGGAUUUUAUACAGUUAUUAAAGGAUGUCUCUUUUGCUUUAAACUGCAUGCUGCCAAGUGCCAUUUGGGGUCAGCAUCCUCGUUUCAACACAGUGUGCUCUCUAGU,1.66
AGCUCACAGCACACCGACUCCGGAGAGAUGGAAGUGGAUAAGUGUCAUGUUAUCCAAGCAGUGGGUUAACUAAAGGGCCCAUUCAUCCUUUAUGCCCGGUACACACAACA,0.583
UUGGGAUUAUAUAAUCUAGGGCCAAGAAGUUUACUGCCUGUGGAGCGGGCAGGAACUCUAGCCACCUUUCUCUGUUACCUGCAGCUGAUUGGCAAGGCUCCUAUGGAGCU,0.32
AGUGUUCCUCGUGGAGUCAGCCUGAGGUAGAUUUCCAGGAAAGCCUUUUCCUCGUUACCAGUGUGUGAUGUCACAACUGAAACUUGUGUUAGUAACGUCUAAGGCCAUGU,0.549
CCGUGAUGCUGUUUUGUAACACAAACUGAUCUCCUUUAGUUCAGUUUGUCUCCUGUAAAUAGCGGCUCCUAUGCCAUCCUCCCUGCUUUAUUAGUUAAUUUAAAUGAACA,0.309
UGACGCCCACCCCACGCUCUUUGCGAGGUUGUCCAGGCUGUGUUUGUCGCAUGCUCUUCUUCUGUAUAGUUCUCAUCUUCCAAUUUUAUGGGAUUCAACAAAAGCCUAUU,4.97
UGCCACGUUACCUUGAUGCAAAUUUGCCAAAUCUGAUACUGUGAAAAGAUUUGAUAACUUUUCUAAUGCCUGACUAGUAAGUUUUAAAACAUCAUUCUUUAAAAGAAUAG,0.444
AGACUGAACUGUGCUCAGGGAUGAGCUUUGCUCAUUUUUGUAUCCUUCCGUUCUAGCCCAGUAUCCCACUUGGACCAGGUAGGCAGAUACUCAAUAAAUGCUUGUUCCAU,0.205

# Sample 2
# Target: RING finger protein unkempt homolog, zinc fingers 1-6, SBP tag (UNK, Homo sapiens, UniProt Q9C0B0, residues 30-357)
# UniProt Q9C0B0, sequence (30-357, looked up): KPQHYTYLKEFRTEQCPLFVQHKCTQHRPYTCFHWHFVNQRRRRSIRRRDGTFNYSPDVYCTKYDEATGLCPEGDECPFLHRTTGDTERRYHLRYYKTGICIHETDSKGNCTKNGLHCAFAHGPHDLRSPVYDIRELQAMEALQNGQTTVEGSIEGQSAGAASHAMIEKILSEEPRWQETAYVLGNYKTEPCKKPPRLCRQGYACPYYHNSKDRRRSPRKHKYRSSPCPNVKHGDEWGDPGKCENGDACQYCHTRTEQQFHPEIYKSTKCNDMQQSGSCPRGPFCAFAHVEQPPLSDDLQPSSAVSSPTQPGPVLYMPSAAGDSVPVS
# Technique: RNA Bind-n-Seq
# Form: RNA
# Matrix: in vitro
# Tested at: 100 nM
# Notes: RNA with constant flanks, vertebrate orthologous sites, ends assumed
# Relative to: input RNA pool
# Reading: higher = stronger binding
# Shared flanks, not repeated: GGGAGUUCUACAGUCCGACGAUC … CAACAGAGGAUUGAGCAUCA
Oligonucleotide,bound/input enrichment [ratio]
AUUAGGUCAUGACCCUUAUAGGUUAGGUCAUGAUGCCUACCGGUUAGGACAGGACCCAUAUAGAUUAGGCCAUGAUCCCUAUAGACUAACUCCUGAUCCCUAUAGAAUGUCACCUAGACC,0.883
UGAGGGUCUGCUGACCACUCACUGUUAAUGUCUGGUAUCUGUAAACAUUUUCUGUUCUUAAAGUCUUUUACUUGUAUAAUUGAUGUUCUUUAAAAUUGUCAAUGUAUAACAGGGCUUAUG,0.287
UUGGGACCAGCUCUCUGAAUAGAAAUAGUAGUAAAAAAACCAAGCAAAAUGAUAUUUGUAUAGAAAAAACAGAAGCUAAAUCAUGUAAAGUAAACGCUGCCAGUGUUCCAGGCCCUAAAG,1.76
AUCUACUUACUAGACUGGGAUUUUCAAACAAUAGGAAGCUUUUUUUUUUUUUUUUACAGUUAUCUGGUUUCUAUGUGGAAGACUAAAGUCAUGCUUAGAGCUAAAUGUGGUCUUUGCCAA,1.7
AAUCACUAAUUGUAAUCUGAAUAAAGUGUAACAUUGUGUAGCCUUUUUUUUUGUAUAAAAUAGACAAAUAGAAAUGGUCCAAUUAGUUUCCUUUUUAAUAUGCUUAAAAGAAGCAGGUGG,0.951
UGCUCCAGUGUAGCAAUUAGUGAGCUUUCCCCUGCUGCUUUCAAGAAAAGAAAUCCCAAAUAGAUUCCUCACCCAUCUGAUUGCACUAUUCUGGGCUUAGUGUCUGUGAUUUUUUACAUA,1.38
UUUUCACAAUCUACUCAAGUAGGUUUACAUACCACAUUAAGCCUUCAUUUGACAUAUUUACAGCUUUUCUGUUUUCCAGAUGAGAUAAAAGAAUUUAAUGCUUAAAAUUAAAUACGGUCU,0.295
CUCUAUGGGCCUCGCAGAGUUGAAAUAAUGGAAGAGGAAAGUGAAUAGUAAUCUUCAUUUCAGUAUUUAUGCUUAGAUGUGAAAAUAAAUGUUAUUUGUUGAUCAUUUCUAUAAUCCAGA,0.269
AGGUUUAUUUCAUGCCCUGGACCCCUUACAGAACAGAUACACUUAUUGAGUACAACUCGCUCGAUGAUUUUCAAAACUCUCGACAGACUACGACGUAUAAACUACCCCAUCGGGUCGAUG,0.459
UGCUGUUAAUGCACUGUAUCCCAGGCAUCGUCUGACCUUAGUGUAAUCUAGGAGAUUUUAUAGUUUUAUUUUAAUGAAGUCUGGAUUGAGGCAAAGCUGGUAGGAGUACGUAGUCUUUUA,4.11
AAUGUGUUAUUUAUUGAAGAUAAUUUUGUGCGAAAGACUGUGUCCCAAUUUAAAAUUGAGUUAGUUGUUUGAUUCCUAUUUGUUGUGGUAUAGUUUUCUUUUUUCAUUAUUGAAAAUAAA,0.661

# Sample 3
# Target: Histone acetyltransferase KAT6A, winged helix 2, GST fusion (KAT6A, Homo sapiens, UniProt Q92794, residues 85-181)
# Technique: protein binding microarray
# Form: double-stranded DNA, one strand shown
# Matrix: in vitro
# Tested at: not given
# Notes: 8-mer, flanks averaged, mean of 2 arrays, mostly near background
# Relative to: not given
# Reading: higher = stronger binding
# Construct (chain): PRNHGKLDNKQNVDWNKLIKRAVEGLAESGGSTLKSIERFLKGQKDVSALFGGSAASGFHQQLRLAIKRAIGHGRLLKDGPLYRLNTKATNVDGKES
Oligonucleotide,E-score
CGGAACTA,0.166
CAACATGA,0.039
GCAGGAGC,0.0508
AGAAGGAG,-0.24
TATTGAAA,0.133
AAGAGTGG,-0.14
TAACCCCA,-0.15
ACAACTCG,-0.0921
AAACGCTG,-0.0419
CACCATGA,0.000435
ATCACAGC,0.00975
CGGTCTAC,0.051
ACATGCAA,-0.0634
GTATATGA,-0.00195
CCAATATA,-0.122
ACGGCAGT,0.115
AAGGCAAT,-0.0322
ATTGCGCG,0.124
CAATCATG,0.098
ACTCGATG,0.109
AGAGGCCT,-0.0323

# Sample 4
# Target: Interferon regulatory factor 3, full length, phosphomimetic (IRF3, Homo sapiens, UniProt Q14653, residues 1-427, S386D/S396D/S398D/S402D/T404D/S405D)
# UniProt Q14653, sequence (whole entry, unmodified, looked up): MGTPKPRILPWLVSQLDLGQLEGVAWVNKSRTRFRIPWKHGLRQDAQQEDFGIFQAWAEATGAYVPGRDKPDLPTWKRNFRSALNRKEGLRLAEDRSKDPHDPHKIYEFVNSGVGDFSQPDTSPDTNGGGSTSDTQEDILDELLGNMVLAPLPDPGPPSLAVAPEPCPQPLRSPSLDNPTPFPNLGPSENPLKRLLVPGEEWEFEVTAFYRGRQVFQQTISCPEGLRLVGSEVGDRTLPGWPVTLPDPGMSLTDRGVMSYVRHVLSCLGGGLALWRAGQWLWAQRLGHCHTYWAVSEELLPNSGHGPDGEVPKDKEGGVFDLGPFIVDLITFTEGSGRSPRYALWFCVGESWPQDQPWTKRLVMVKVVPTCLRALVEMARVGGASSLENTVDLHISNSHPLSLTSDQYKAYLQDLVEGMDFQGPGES
# Technique: protein-binding microarray
# Form: double-stranded DNA, one strand shown
# Matrix: in vitro
# Tested at: 2540 nM top
# Notes: 60-bp whole probe
# Together with: salmon DNA 0.4 mg/ml
# Relative to: random background probes
# Reading: higher = stronger binding
# Shared flanks, not repeated: GCCTAGCAC … GTCTTGATTCGCTTGACGCTGCTG
Oligonucleotide,fitted relative affinity [z-score]
TAAGGTATCGACACTGGGTTAGTGCTA,0.00284
TTAGATTACGGGACTGGATTAGTGCTA,-0.415
TTAGGTTTAGGTATCGGTTAGTGCTAG,1.7
GACGATATCAGTCTCGGGACGTGCTAG,1.05
TTAGGACGGGACACTGGGTTAGTGCTA,-0.827
TTAGGGCTGGGTCTCGGTTAGTGCTAG,-1.14
TTAGATTTCCGTTTCGATTAGTGCTAG,6.09
TCAAGTTTGTAAATCTTACTGTGCTAG,-0.284
GACGGTCTCAGTCTCGGGACGTGCTAG,1.35
CTGTGTACATCTCTCTTAAAGTGCTAG,0.797
TTAGAACTGGGGTATCGATGAGTGCTA,-0.867
TCATTTATTTTTTTTATACTGTGCTAG,1.63
CACGGTATCGGACTGGGGACGTGCTAG,1.23
GATGGACTGGGGTTTCGGGACGTGCTA,0.371
GACGGTATCCCACTGCTGACGTGCTAG,2.32
GACGGATTGGGACTGGGGACGTGCTAG,-0.394
TTAGATATCGGGTTTTGATTAGTGCTA,0.364
GACGGTTTCAGTTCCGAGACGTGCTAG,6.02
TTAGGTTGCGACACTGGGTTAGTGCTA,0.357
TTAGGACTGGACACTGGGTGAGTGCTA,-0.725
TTAGGTTCCGGTTTCGGTCAGTGCTAG,7.12
CACTTTCTTTACTTCACTCTGTGCTAG,3.37
TTAGAACTGAGTATCGATTGGTGCTAG,-0.146
CTAGAGATTTTTCTCAACCGGTGCTAG,0.0155
GACGGTTTCGGTATCGGGACGTGCTAG,8.2

# A few entries again (sample 1):
Oligonucleotide,RBNS enrichment (R)
UGCCACGUUACCUUGAUGCAAAUUUGCCAAAUCUGAUACUGUGAAAAGAUUUGAUAACUUUUCUAAUGCCUGACUAGUAAGUUUUAAAACAUCAUUCUUUAAAAGAAUAG,0.444
GACAUACCUGUGAUGGAACACACAAACAGACACGCACCAUGGGGGGUGGCCCACAAAGCCUUACACAAGGCGAGAUGUCAAUGAAGGGGUUGGCCUGUGUGUUCCAUCUC,0.924
GGUGGCAUGUGCCAGUAGUCCCAGCUACUCGAAAGGCUAAGACUGGAGGAUCGCUUGAGCCAAUGAGUUGGAGGCUGCAGUGAGCUAUAAUCACGCCACUGCACUCCAGC,0.544
UGACGCCCACCCCACGCUCUUUGCGAGGUUGUCCAGGCUGUGUUUGUCGCAUGCUCUUCUUCUGUAUAGUUCUCAUCUUCCAAUUUUAUGGGAUUCAACAAAAGCCUAUU,4.97
CCGUGAUGCUGUUUUGUAACACAAACUGAUCUCCUUUAGUUCAGUUUGUCUCCUGUAAAUAGCGGCUCCUAUGCCAUCCUCCCUGCUUUAUUAGUUAAUUUAAAUGAACA,0.309
AGCUCACAGCACACCGACUCCGGAGAGAUGGAAGUGGAUAAGUGUCAUGUUAUCCAAGCAGUGGGUUAACUAAAGGGCCCAUUCAUCCUUUAUGCCCGGUACACACAACA,0.583
CUGCUGUGUGAGAGAGGAGCCAAGAGGCAGGUGCUUGCCGACGGCCGCAUCCUCCUUCCCAGGUGUUGGACCAAGACCCGCCCCGCUGCCUGGCACUGCUUGGAGGUGUG,0.909
UUGGGAUUAUAUAAUCUAGGGCCAAGAAGUUUACUGCCUGUGGAGCGGGCAGGAACUCUAGCCACCUUUCUCUGUUACCUGCAGCUGAUUGGCAAGGCUCCUAUGGAGCU,0.32
AGUGUUCCUCGUGGAGUCAGCCUGAGGUAGAUUUCCAGGAAAGCCUUUUCCUCGUUACCAGUGUGUGAUGUCACAACUGAAACUUGUGUUAGUAACGUCUAAGGCCAUGU,0.549
GAGCAGUCCUUCAAUCUCAGAACCCCAGGAGGCCCCACAGGAGUUGCCCUCCUCCUUCAGCCUGCCCCUGCCUUGGGCUGCCCUUCCCCUGGUGUACUCCUGAGGUGUCU,0.725
UGCCUGGAUUUUAUACAGUUAUUAAAGGAUGUCUCUUUUGCUUUAAACUGCAUGCUGCCAAGUGCCAUUUGGGGUCAGCAUCCUCGUUUCAACACAGUGUGCUCUCUAGU,1.66
AGACUGAACUGUGCUCAGGGAUGAGCUUUGCUCAUUUUUGUAUCCUUCCGUUCUAGCCCAGUAUCCCACUUGGACCAGGUAGGCAGAUACUCAAUAAAUGCUUGUUCCAU,0.205
